# Measurements from different studies.
# A part holds a random share of what one study measured.
# Sequence of UniProt P00519 (whole entry, unmodified, looked up): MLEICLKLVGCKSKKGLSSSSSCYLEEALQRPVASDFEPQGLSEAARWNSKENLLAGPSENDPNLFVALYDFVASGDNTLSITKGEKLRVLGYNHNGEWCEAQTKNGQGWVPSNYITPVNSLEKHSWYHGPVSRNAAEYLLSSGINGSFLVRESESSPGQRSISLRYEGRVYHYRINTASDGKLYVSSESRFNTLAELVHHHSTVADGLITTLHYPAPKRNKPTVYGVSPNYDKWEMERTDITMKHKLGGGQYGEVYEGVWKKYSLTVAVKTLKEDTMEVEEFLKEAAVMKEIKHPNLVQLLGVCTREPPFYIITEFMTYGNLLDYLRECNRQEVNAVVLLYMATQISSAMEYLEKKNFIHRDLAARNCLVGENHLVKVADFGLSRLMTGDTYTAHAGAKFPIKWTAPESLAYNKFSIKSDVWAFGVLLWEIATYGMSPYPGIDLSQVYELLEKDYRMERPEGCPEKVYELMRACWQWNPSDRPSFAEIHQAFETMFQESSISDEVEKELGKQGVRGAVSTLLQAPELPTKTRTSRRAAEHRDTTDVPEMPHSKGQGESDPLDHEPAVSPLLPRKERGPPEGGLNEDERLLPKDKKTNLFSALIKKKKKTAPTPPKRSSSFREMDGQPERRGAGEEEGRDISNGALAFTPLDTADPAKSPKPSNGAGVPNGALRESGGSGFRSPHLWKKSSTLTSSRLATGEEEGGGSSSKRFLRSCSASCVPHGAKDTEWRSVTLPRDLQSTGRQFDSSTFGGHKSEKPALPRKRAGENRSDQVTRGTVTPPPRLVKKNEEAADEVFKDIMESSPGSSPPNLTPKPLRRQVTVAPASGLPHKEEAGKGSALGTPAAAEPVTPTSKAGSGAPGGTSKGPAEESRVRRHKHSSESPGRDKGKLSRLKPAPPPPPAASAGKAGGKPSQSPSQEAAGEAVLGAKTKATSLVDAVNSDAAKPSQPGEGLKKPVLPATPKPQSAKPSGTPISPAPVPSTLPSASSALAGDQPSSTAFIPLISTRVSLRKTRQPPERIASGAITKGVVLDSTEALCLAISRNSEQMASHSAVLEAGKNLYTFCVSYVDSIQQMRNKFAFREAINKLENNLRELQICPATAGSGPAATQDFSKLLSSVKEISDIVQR
# Sequence of UniProt Q9UKI8 (whole entry, looked up): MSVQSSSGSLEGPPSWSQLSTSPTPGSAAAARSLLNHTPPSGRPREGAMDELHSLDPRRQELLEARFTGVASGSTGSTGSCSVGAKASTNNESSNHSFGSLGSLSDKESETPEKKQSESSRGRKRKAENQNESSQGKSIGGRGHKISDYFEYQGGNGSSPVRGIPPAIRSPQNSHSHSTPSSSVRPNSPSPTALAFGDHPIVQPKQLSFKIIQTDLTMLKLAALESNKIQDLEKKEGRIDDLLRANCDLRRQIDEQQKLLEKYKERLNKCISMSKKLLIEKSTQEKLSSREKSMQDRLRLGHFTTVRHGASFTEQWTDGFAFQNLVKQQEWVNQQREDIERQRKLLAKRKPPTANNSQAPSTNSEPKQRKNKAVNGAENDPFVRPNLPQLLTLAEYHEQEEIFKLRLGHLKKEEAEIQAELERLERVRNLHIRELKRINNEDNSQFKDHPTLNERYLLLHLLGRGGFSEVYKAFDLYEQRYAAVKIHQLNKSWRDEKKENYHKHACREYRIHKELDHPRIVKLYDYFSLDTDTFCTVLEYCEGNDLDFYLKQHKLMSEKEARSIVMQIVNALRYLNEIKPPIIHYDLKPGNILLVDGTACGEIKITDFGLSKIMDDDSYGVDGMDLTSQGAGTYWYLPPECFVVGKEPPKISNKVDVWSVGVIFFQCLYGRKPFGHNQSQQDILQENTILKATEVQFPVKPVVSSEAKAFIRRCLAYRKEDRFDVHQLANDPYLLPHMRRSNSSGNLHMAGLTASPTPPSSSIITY
# Sequence of UniProt Q16816 (whole entry, looked up): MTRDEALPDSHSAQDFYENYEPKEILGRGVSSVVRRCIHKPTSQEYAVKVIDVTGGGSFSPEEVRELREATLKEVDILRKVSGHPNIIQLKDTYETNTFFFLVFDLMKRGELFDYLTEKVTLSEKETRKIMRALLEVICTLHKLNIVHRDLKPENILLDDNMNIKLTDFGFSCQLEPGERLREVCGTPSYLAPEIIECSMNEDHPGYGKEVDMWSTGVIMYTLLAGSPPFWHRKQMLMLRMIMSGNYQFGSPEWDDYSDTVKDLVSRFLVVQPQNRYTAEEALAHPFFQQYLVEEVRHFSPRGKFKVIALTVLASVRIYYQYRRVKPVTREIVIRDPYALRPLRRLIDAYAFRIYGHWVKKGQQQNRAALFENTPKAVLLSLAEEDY
# Sequence of UniProt Q13163 (whole entry, looked up): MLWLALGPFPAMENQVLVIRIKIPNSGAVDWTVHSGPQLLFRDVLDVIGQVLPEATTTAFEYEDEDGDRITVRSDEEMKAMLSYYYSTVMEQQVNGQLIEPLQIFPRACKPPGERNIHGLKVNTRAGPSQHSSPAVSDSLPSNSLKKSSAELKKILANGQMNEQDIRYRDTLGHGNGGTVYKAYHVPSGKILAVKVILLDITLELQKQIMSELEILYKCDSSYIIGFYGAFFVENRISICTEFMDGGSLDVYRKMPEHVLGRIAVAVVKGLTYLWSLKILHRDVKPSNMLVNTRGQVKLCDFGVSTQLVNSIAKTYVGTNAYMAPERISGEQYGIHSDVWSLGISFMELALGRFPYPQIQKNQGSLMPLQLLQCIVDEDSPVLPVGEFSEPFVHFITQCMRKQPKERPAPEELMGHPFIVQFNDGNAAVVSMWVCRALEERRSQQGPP
# Sequence of UniProt P53779 (whole entry, looked up): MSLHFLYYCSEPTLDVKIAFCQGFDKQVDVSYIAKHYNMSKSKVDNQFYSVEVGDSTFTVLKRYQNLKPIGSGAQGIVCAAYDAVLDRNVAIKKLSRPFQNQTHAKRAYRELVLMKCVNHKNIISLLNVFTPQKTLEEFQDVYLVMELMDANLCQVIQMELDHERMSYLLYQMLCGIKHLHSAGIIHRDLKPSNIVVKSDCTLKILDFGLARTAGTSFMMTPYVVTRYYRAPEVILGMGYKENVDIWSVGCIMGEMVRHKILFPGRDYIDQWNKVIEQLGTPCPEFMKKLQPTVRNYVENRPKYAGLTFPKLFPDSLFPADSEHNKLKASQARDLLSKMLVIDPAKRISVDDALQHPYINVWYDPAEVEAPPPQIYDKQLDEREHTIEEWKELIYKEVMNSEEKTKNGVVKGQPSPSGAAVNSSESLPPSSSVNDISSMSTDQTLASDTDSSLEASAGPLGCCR
# Sequence of UniProt P11802 (whole entry, looked up): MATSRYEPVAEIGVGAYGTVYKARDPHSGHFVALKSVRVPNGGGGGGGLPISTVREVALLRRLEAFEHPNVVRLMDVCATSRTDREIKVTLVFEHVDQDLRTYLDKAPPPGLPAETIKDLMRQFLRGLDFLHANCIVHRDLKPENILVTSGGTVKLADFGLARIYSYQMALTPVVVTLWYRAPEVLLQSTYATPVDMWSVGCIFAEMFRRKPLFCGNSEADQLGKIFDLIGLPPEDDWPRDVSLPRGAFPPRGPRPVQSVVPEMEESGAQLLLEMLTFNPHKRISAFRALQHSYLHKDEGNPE

# Series 1 — method: protein binding microarray; molecule type: double-stranded DNA, one strand shown; matrix: in vitro; concentration: not given; reference: not given; direction: higher = stronger binding
# Target: Histone acetyltransferase KAT6A, both winged helices, GST fusion (KAT6A, Homo sapiens, UniProt Q92794, residues 1-181)
# Notes: 8-mer, flanks averaged, mean of 2 arrays, mostly near background
# Target sequence (chain): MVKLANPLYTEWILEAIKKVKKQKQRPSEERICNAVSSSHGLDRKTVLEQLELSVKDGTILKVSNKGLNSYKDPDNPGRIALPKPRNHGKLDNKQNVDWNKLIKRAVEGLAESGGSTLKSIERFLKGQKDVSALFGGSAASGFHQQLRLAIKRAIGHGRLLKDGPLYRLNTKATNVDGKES
Sequence,E-score
ACACACCC,0.0138
CAATGCCC,-0.0429
ATTGCAAT,0.155
AGGGTATA,-0.136
CACCCCGA,-0.0524
ATGATAAA,0.0484
AACTAGGT,-0.154
TAGCCTCA,-0.238

# Series 2 — method: competition with immobilised ligand; concentration: 1 µM
# SMILES: Cc1nc(Cc2cccc(C(F)(F)F)c2)sc1-c1ccc(C(N)=O)nc1
target,observed,remaining binding [%]
"Cyclin-dependent kinase 4, with cyclin D1 (CDK4, Homo sapiens, UniProt P11802)",cell-free assay,100
"RET (Homo sapiens, UniProt P07949)",cell-free assay,100
"Tyrosine-protein kinase ABL1, phosphorylated (ABL1, Homo sapiens, UniProt P00519, E255K)",binding,85
"HUNK (Homo sapiens, UniProt P57058)",cell-free assay,90
"AKT3 (Homo sapiens, UniProt Q9Y243)",cell-free assay,92
"MAP3K9 (Homo sapiens, UniProt P80192)",cell-free assay,100
"TLK1 (Homo sapiens, UniProt Q9UKI8)",cell-free assay,100
"PIM3 (Homo sapiens, UniProt Q86V86)",cell-free assay,100
"MAPK7 (Homo sapiens, UniProt Q13164)",cell-free assay,88
"NIM1K (Homo sapiens, UniProt Q8IY84)",cell-free assay,100
"MAPK10 (Homo sapiens, UniProt P53779)",cell-free assay,100
"MAST1 (Homo sapiens, UniProt Q9Y2H9)",cell-free assay,100
"PHKG1 (Homo sapiens, UniProt Q16816)",cell-free assay,84
"MAP2K5 (Homo sapiens, UniProt Q13163)",cell-free assay,85

# Series 3 — method: universal PBM; molecule type: double-stranded DNA, one strand shown; matrix: in vitro; concentration: 600 nM; direction: higher = stronger binding
# Target: Sal-like protein 4, full length isoform A (SALL4, Homo sapiens, UniProt Q9UJQ4, residues 1-1053)
# Sequence of UniProt Q9UJQ4 (whole entry, looked up): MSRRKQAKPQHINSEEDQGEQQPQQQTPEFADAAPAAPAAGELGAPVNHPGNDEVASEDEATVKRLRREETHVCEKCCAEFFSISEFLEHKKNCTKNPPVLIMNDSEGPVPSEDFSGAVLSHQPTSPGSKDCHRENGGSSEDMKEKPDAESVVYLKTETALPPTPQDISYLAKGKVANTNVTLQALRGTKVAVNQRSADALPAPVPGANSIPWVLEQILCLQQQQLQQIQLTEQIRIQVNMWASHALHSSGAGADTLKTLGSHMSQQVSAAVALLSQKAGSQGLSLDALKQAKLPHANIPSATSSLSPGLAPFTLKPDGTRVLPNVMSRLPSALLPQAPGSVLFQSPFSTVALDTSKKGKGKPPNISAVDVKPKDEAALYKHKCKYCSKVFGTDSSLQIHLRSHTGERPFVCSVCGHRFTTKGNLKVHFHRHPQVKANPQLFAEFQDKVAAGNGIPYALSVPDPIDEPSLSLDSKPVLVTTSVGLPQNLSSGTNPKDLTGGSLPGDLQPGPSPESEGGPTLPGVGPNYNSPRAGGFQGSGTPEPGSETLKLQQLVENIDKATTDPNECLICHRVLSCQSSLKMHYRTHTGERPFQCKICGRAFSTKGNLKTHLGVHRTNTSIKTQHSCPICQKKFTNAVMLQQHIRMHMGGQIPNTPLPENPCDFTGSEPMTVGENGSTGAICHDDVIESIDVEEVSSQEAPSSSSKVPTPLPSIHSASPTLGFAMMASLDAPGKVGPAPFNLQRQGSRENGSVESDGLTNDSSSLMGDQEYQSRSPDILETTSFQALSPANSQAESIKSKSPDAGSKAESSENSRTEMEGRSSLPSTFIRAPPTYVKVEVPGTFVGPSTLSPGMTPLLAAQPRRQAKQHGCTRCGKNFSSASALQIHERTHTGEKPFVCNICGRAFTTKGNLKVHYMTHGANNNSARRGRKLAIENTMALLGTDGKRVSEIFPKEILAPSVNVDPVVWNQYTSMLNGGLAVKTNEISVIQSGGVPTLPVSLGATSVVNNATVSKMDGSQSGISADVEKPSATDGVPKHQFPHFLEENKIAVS
# Notes: 8-mer, flanks averaged, mean of replicates
Sequence,E-score
CTTTATCA,0.251
CCCCCGGA,-0.3
TTGACCAA,0.0349
AAGCCTTA,0.0143
CCAGATAC,-0.0652
AACAATGA,0.204
AAGCGTGG,-0.226
AGACCAGC,-0.343

# Single results of other studies
Compound,test,system,conditions,endpoint,result
COc1ccccc1-c1n[nH]cc1CN1CCCN(S(=O)(=O)c2cn(C)cn2)C(c2ccccc2)CC(=O)NCC1 (stereo not drawn),,"human, microsomes or S9","2 µM, 0.5 h",remaining compound,88.5%
COc1ccc(-c2c(Nc3ccccn3)[nH]c3c(C4=CCCCC4)c(-c4ccccc4)nn3c2=O)cc1,measured: S-adenosylmethionine,"human patients, plasma","150 mg once daily, 0 h",median concentration,11.9 ng/mL
Cn1nccc1-c1ccnc2nc(Cc3ccc4c(c3)CCC(C)(C)O4)nn12,,"human, microsomes or S9","2 µM, 0.5 h",remaining compound,27.3%
